Results collected from several papers.
A part holds a random share of what one study measured. Positions count from the first letter of the parent shown.

Series 1
Target: Histone acetyltransferase KAT6A, winged helix 1, GST fusion (KAT6A, Homo sapiens, UniProt Q92794, residues 1-85)
Technique: protein binding microarray
Form: double-stranded DNA, one strand shown
Sample: in vitro
Tested at: not given
Notes: 8-mer, flanks averaged, mean of 2 arrays, mostly near background
Baseline: not given
Direction: higher = stronger binding
Target sequence (chain): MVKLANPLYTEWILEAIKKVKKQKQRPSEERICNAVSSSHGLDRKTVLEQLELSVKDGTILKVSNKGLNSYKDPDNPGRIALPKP
For `CTCAGCAA`, the E-score was -0.116.
The E-score of `ATGAGGAC` is reported as -0.0507.
`AAAGTTCT` gave an E-score of -0.082.
For `AGAATTGC`, the E-score was 0.0137.
`CGTTCTGC` has an E-score of 0.0611.
For `ACGAGGCC`, the E-score was 0.00272.
The E-score of `ATTTATCC` is reported as -0.111.
`CGTTTCGA` has an E-score of -0.0584.
`AGCCATCA` has an E-score of -0.0543.

Series 2
Target: CCNB1, cyclin fold, Cln2 fusion (human)
Technique: yeast growth competition, sequencing
Sample: yeast
Notes: weak parent motif
Baseline: not given
Direction: higher = stronger binding
Starting sequence: CDKN1B docking peptide (human); PSACRNLFGPVDH
`PSACRNLHGPVDH [F8H]` — result for “normalised enrichment score”: 0.332.
`PSACRNKFGPVDH [L7K]`: “normalised enrichment score” 0.0415.
For `YSACRNLFGPVDH [P1Y]`, “normalised enrichment score” read 0.614.
For `HSACRNLFGPVDH [P1H]`, “normalised enrichment score” read 0.748.
For `PMACRNLFGPVDH [S2M]`, “normalised enrichment score” read 0.118.
Under “normalised enrichment score”, `VSACRNLFGPVDH [P1V]` is recorded as 0.395.
`PSACRNTFGPVDH [L7T]`: “normalised enrichment score” -0.156.

Series 3
Target: Sal-like protein 4, full length isoform B (SALL4, Homo sapiens, UniProt Q9UJQ4-2, residues 1-616)
Technique: universal PBM
Form: double-stranded DNA, one strand shown
Sample: in vitro
Tested at: not given
Notes: 8-mer, flanks averaged, mean of replicates
Direction: higher = stronger binding
With `AACCACAC` the E-score was -0.0138.
`GAGCAAAA` has an E-score of 0.108.
The E-score of `ACAGCTAA` is reported as 0.00073.
`GTCGTTAA` gave an E-score of 0.144.
`ATAACAGG` gave an E-score of 0.157.
The E-score of `GGCTAATA` is reported as 0.171.
For `CAATTCTG`, the E-score was -0.0267.
`CTAGTAGC` gave an E-score of -0.124.
With `ATCTACAT` the E-score was 0.208.
For `AATTTCAC`, the E-score was 0.289.
The E-score of `GTACGGAC` is reported as -0.122.

Single results of other studies
`PhoQ, residues 284 288 289 292 302 303 QWQEDG` gave a fold induction of 0.803 (PhoP, residues 12 14 15 18 19 TPWLV (Escherichia coli, UniProt P23836); Sort-seq, refers to: YFP reporter; E. coli; PhoQ-PhoP variant library, added: 10 µM Mg2+; baseline: high Mg2+ state, higher = stronger signaling).

For quick reference, copied from above (series 3):
`GAGCAAAA` has an E-score of 0.108.
The E-score of `ACAGCTAA` is reported as 0.00073.
`GTCGTTAA` gave an E-score of 0.144.
`ATAACAGG` gave an E-score of 0.157.
